Experimental data from different studies.
Parts stem from different laboratories: compare values within a part only. “And” joins repeats or separate records; there may be more than shown.

Study 1
Compound: COc1ccc2c(c1)O[C@H](c1ccc(OC)c(OC)c1)C[C@@H]2NC(=O)C1(c2ccc3c(c2)OC(F)(F)O3)CC1 (single isomer, unassigned)
Concentration: 1 µM
Reference: DMSO
Endpoint: viability
sample B colorectal tumour organoid: 124% and 114%
normal-adjacent epithelium patient-derived organoids sample G; CellTiter-Glo: 102% and 96.4%
sample I colorectal tumour organoid: 110% and 113%
normal-adjacent epithelium patient-derived organoids sample F; CellTiter-Glo: 80.9% and 148%
normal adjacent epithelium organoid sample G; CellTiter-Glo: 99.2%
normal-adjacent epithelium patient-derived organoids sample H; CellTiter-Glo: 134% and 160%
normal adjacent epithelium organoid sample F; CellTiter-Glo: 114%

Study 2
Cell line: A-375
Concentration: 100 µM
Time: 36 h
Endpoint: viability
N=C(N)c1ccc(/N=N/Nc2ccc(C(=N)N)cc2)cc1: 3.99%
OCCc1ccccc1: 130%
CC1(C)O[C@@H]2C[C@H]3[C@@H]4C[C@H](F)C5=CC(=O)C=C[C@]5(C)[C@@]4(F)[C@@H](O)C[C@]3(C)[C@]2(C(=O)CO)O1: 101%
CCn1c(=O)c2c(nc(/C=C/c3ccc(OC)c(OC)c3)n2C)n(CC)c1=O: 98.5%
O=c1ccc2cc3ccoc3cc2o1: 87.3%
Nc1ccc(S(=O)(=O)Nc2ccccn2)cc1: 97.5%
CC(C)(O/N=C(\C(=O)N[C@@H]1C(=O)N2C(C(=O)[O-])=C(C[n+]3ccccc3)CS[C@H]12)c1csc(N)n1)C(=O)O: 112%
COc1cc2nc(N3CCN(C(=O)C4COc5ccccc5O4)CC3)nc(N)c2cc1OC (stereo not shown): 0.649%
CC(C)=CCC[C@](C)(O[C@@H]1O[C@H](CO[C@@H]2O[C@@H](CO)[C@H](O)[C@H]2O)[C@@H](O)[C@H](O)[C@H]1O)[C@H]1CC[C@]2(C)[C@@H]1[C@H](O)C[C@@H]1[C@@]3(C)CC[C@H](O[C@@H]4O[C@H](CO)[C@@H](O)[C@H](O)[C@H]4O[C@@H]4O[C@H](CO)[C@@H](O)[C@H](O)[C@H]4O)C(C)(C)[C@@H]3CC[C@]12C: 89.7%
CCN1CCN(C(=O)N[C@@H](C(=O)N[C@@H]2C(=O)N3C(C(=O)O)=C(CSc4nnnn4C)CS[C@H]23)c2ccc(O)cc2)C(=O)C1=O: 113%
CCNC(=O)[C@@H]1CCCN1C(=O)[C@H](CCCNC(=N)N)NC(=O)[C@H](CC(C)C)NC(=O)[C@@H](C)NC(=O)[C@H](Cc1ccc(O)cc1)NC(=O)[C@H](CO)NC(=O)[C@H](Cc1c[nH]c2ccccc12)NC(=O)[C@H](Cc1c[nH]cn1)NC(=O)[C@@H]1CCC(=O)N1: 92.5%
NNc1nncc2ccccc12: 103%

Study 3
Cell line: mouse MPNST tumor cells
Method: high-content immunofluorescence imaging
Refers to: nuclear SOX9
Concentration: 10 µM
Time: 12 h
Setting: mean of 2 replicates
Reference: DMSO control
Direction: higher = more nuclear SOX9
Endpoint: nuclear SOX9 intensity
Cc1ccc(S(=O)(=O)NCc2ccccc2)cc1: 91.1 % of DMSO
Nc1ncnc2c1cnn2-c1ccccc1: 109 % of DMSO
CC1(C)CCC[C@]2(C)[C@@H](C=O)C(C=O)=CC[C@@H]12: 98 % of DMSO
Cc1cccc(C)c1NC(=O)C(C)N (stereo not shown): 97.3 % of DMSO
N#Cc1cccc(-c2nc(-c3cccnc3)no2)c1: 102 % of DMSO
CCC(CC)O[C@@H]1C=C(C(=O)O)C[C@H](N)[C@H]1NC(C)=O: 104 % of DMSO
CCCCN(CCCC)CCC(O)c1cc2c(Cl)cc(Cl)cc2c2cc(C(F)(F)F)ccc12 (stereo not shown): 133 % of DMSO and 151 % of DMSO
CC(C)c1cc(C(C)C)c(CC(=O)NS(=O)(=O)Oc2c(C(C)C)cccc2C(C)C)c(C(C)C)c1: 103 % of DMSO

Further values, each from its own experiment
CC(C)n1cnc(-c2ccc(F)cc2)c1-c1ncc(C(=O)Nc2ccc(N3CCN(C)CC3)cc2)[nH]1
patients with CRP increased (phase 2a trial; idiopathic pulmonary fibrosis patients; 30 mg once daily, adverse event grade 1): 1%
